# Experimental data gathered from unrelated publications.
# A part holds a random share of what one study measured. Substitutions count along the parent as printed.

# Sample 1
# Target: CCND1, cyclin fold, Cln2 fusion (human)
# Method: yeast growth competition, sequencing
# Matrix: yeast
# Setting: weak parent motif
# Relative to: not given
# Direction: higher = stronger binding
# Starting sequence: BRCA2 docking peptide (human); PSIKRNLLNEFDR
Variant,normalised enrichment score
PSIKRNLLFEFDR [N9F],-0.151
PSIKRRLLNEFDR [N6R],-0.111
PSIKRNLLQEFDR [N9Q],0.36
PSIKRNLLVEFDR [N9V],0.359

# Sample 2
# Target: RING finger protein unkempt homolog, zinc fingers 1-6, GST-SBP tag (UNK, Homo sapiens, UniProt Q9C0B0, residues 30-357)
# Chain of UniProt Q9C0B0 (30-357, looked up): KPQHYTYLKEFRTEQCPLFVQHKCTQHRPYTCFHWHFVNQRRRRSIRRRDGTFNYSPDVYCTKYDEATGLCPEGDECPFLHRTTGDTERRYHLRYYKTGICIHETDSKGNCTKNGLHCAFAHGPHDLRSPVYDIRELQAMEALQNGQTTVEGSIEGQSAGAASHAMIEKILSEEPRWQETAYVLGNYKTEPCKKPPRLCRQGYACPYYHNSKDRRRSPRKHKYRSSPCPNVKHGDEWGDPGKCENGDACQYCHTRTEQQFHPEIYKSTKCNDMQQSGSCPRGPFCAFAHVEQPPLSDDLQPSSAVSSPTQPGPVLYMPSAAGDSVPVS
# Method: RNA Bind-n-Seq
# Molecule type: RNA
# Matrix: in vitro
# Tested at: not given
# Setting: RNA with constant flanks, human-mouse chimeric sites, ends assumed
# Relative to: input RNA pool
# Direction: higher = stronger binding
Sequence,bound/input enrichment [ratio]
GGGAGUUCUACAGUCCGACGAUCUUACCCGAGAACGAGGAUGAGCUGGAGAGCACCAACAGGCGCUACACCAAGAGGGACUGUAGCACUUUCCUCAGAACUAGUGAGACGGGCAUCGUGGACCAGGUCAUGGUAACUCUCAACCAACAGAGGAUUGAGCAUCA,0.201
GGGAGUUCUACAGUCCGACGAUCGAAACAUUUAAAUUUAAAGAAGCUGUUGUUCUAGGAAGUACGGACUUCCUAGAAGAUGAUAUAGAGAAAAUUGUAGAAGAACUGGGGAAAGAGUAUAAAGGCAAUGCCUACCAUCUGAUGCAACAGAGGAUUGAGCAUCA,1.3
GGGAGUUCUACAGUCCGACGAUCAAAGUGAUAACCAUGUUUGUCCAACGACAGGUAUUUUCGGAGAGCAAAGAUGAGAUUGCGUUAGUCCUCUAUGGCACAGAUGGCACUGAUAAUGCCCUUGCUGGCAAGGAUCAGUAUCAGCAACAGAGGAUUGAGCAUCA,0.195
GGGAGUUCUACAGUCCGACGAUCAAAGAGAAACUAAAGCAACUAAUAGAGAAGAGGAUUGGCAAAGAGAAUUUCAUAGAGGAAACUAGGAUUAUUAGCAAACAUGAGUUAUAUUCCAGAGCGUCUCAGAAACCCCAGCCAAACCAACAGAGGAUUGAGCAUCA,5.38
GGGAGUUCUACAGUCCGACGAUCAGAAUCUGUGACUGGCUUUACUUAAUUGGUCAUUGAUAGCUUAACAAACAUGGAGAUAAGAUUAGAAAUCUUGACAUCAACAGGUAUCAAGCAGAAAAAACCAUGGCCACGUGUCUCCUGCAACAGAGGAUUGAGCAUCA,0.156
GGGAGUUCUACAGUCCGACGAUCUUUCUACUGCAGCAAACCAUGCUACGAAUUAAGGAUCCUAAGAAGUCACUGGAUUUUUAUACGAGGGUUCUUGGACUGACCCUCCUGCAGAAGCUUGACUUCCCUGCUAUGAAGUUCUCGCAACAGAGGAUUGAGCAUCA,0.114

# Sample 3
# Target: Histone acetyltransferase KAT6A, both winged helices, GST fusion (KAT6A, Homo sapiens, UniProt Q92794, residues 1-181)
# Method: protein binding microarray
# Molecule type: double-stranded DNA, one strand shown
# Matrix: in vitro
# Tested at: not given
# Setting: 8-mer, flanks averaged, mean of 2 arrays, mostly near background
# Relative to: not given
# Direction: higher = stronger binding
# Residues (chain): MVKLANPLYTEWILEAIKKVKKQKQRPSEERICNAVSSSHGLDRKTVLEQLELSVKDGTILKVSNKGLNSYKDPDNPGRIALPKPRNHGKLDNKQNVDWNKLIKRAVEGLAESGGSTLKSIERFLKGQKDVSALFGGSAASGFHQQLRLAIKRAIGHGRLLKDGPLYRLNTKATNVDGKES
Sequence,E-score
TGATCTAA,-0.135
GCGGGATA,0.315
AACGTTAT,-0.0149
GTTATGTA,-0.0916
GCAATTCC,0.037
CAACACAG,-0.149
CCGCGAAG,0.231

# Other studies, line by line
Substance,target,assay,test system,conditions,how to read,quantity,value
"PhoQ, residues 284 288 289 292 302 303 SVTLVV","PhoP, residues 12 14 15 18 19 AWHSL (Escherichia coli, UniProt P23836)","Sort-seq, measured: YFP reporter",E. coli,"PhoQ-PhoP variant library, together with: 10 µM Mg2+","relative to: high Mg2+ state, higher = stronger signaling",fold induction,3.42

# Repeated from above (sample 3):
Sequence,E-score
CCGCGAAG,0.231
GCAATTCC,0.037
CAACACAG,-0.149
